# Measured values from different studies.
# Each numbered part is a random draw from the data of one study; scales do not carry over between parts. Positions count from the first letter of the parent shown.

# Block 1
# Target: Probable WRKY transcription factor 33, C-terminal DNA-binding domain (WRKY33, Arabidopsis thaliana, UniProt Q8S8P5, residues 346-449)
# Technique: DNA-protein interaction ELISA
# Form: double-stranded DNA, one strand shown
# Sample: in vitro, bacterial lysate
# Tested at: not given
# Setting: whole dsDNA probe, crude lysate protein
# Baseline: highest signal in screen
# Direction: higher = stronger binding
# Target sequence (chain): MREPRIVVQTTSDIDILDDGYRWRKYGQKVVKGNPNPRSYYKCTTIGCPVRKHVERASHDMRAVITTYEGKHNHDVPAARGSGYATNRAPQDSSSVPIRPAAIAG
Sequence,relative absorbance
AAAAAAGGTCTGGACGATCACCGGGAAAAA,39 % of maximum
AAAAAACTGACCGTCAGCGCCCACGCAAAA,88.2 % of maximum
AAAAAACTTCCCTCCTTGTCCTCCCCAAAA,33.2 % of maximum
AAAAAAGTCTCACCTTTAGTCTTAATAAAA,44.3 % of maximum
AAAAAACCCTACATCGCATATAAGAGAAAA,32.1 % of maximum
AAAAAAGTATAACGTGTTGTTGACCGAAAA,99.4 % of maximum
AAAAAACCCGGTTGGAGAAAATAATTAAAA,41.3 % of maximum
AAAAAACTCGTACATCTATCGCTACGAAAA,29.6 % of maximum
AAAAAAATGTTCAAGCTCGATCTACAAAAA,42.6 % of maximum
AAAAAACCAGCCTCAGTCCTGAACAAAAAA,38.5 % of maximum
AAAAAAACACCTGTATAGCATGGACGAAAA,58.2 % of maximum
AAAAAAATGATTGCCAATGCTCGCAAAAAA,48.8 % of maximum
AAAAAATTCAAAATGATCACTACGGGAAAA,33.4 % of maximum
AAAAAAAGTGGCCGCTAGTCAACTCAAAAA,99.4 % of maximum
AAAAAAGTTGCCGACGATTGCGGGTTAAAA,61.8 % of maximum
AAAAAACTGGCGACTGCCAGTGGTAGAAAA,56.8 % of maximum

# Block 2
# Target: Histone acetyltransferase KAT6A, winged helix 2, GST fusion (KAT6A, Homo sapiens, UniProt Q92794, residues 85-181)
# Technique: protein binding microarray
# Form: double-stranded DNA, one strand shown
# Sample: in vitro
# Tested at: not given
# Setting: 8-mer, flanks averaged, mean of 2 arrays, mostly near background
# Baseline: not given
# Direction: higher = stronger binding
# Target sequence (chain): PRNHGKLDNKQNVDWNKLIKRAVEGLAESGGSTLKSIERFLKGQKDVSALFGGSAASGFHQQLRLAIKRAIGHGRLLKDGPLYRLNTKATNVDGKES
Sequence,E-score
CCTTTAAA,-0.106
AAGTCTTC,-0.155
CGCAGTCA,-0.0317
AAACCTGG,0.0467
ACCAGAGA,-0.136
AAGTACCC,-0.15
GAAACAGA,0.147
CATACGTC,-0.206
GAGGATCA,0.017
AGCGAGAA,-0.0187
GCCTGGCC,0.154
AAGCCATA,-0.105
CCAGTAGA,-0.137
CAGAGAAG,0.0358
CACTTGGG,0.0427
GGTCCAAA,-0.0164
AACACCGT,-0.116
AGCCTGAC,-0.055
CTAAACTA,-0.258
GTATAGCA,0.113
GTAGTAGA,0.0377
GATCGGCA,0.0929
AAACCATT,-0.0979
ACTGCAAT,0.07
AATTCAAC,0.104

# Block 3
# Target: MAFK, bZIP domain (human)
# Technique: DHFR protein complementation
# Sample: yeast
# Setting: single substitutions, most at no-binding floor
# Baseline: wild-type JUN-FOS pair
# Direction: higher = stronger binding
# Parent: JUN, bZIP domain (human); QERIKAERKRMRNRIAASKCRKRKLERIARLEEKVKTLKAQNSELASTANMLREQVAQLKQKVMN; partner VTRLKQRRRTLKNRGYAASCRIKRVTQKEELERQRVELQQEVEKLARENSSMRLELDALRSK
Variant,binding fitness [natural log]
L31C,-1.52
R30L,-1.39
N42W,-1.44
R30K,-1.5
R30P,-1.46
L38C,-1.54
A40N,-1.43
E32Y,-1.49
T37I,-1.4
E54T,-1.51
K36C,-1.44
V35Y,-1.49
L52R,-1.46
L52T,-1.48
L31A,-1.35
A49V,-1.43
Q41K,-1.54
V35A,-1.5
V35W,-1.4
E54C,-1.56
K39T,-1.41
A49S,-1.45
A40D,-1.48
T48E,-1.48
I28Y,-1.43

# Block 4
# Target: CRIPT, C-terminal peptide
# Technique: DHFR complementation, deep sequencing
# Sample: yeast
# Setting: single substitutions, model-inferred values
# Baseline: wild type
# Direction: higher = weaker binding
# Parent: ERBIN, PDZ domain 1 (human); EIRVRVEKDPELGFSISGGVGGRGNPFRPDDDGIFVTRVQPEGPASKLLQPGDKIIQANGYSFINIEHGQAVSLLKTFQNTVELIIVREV; partner TKNYKQTSV
Variant,binding free energy change [kcal/mol]
S15C,0.353
L84H,0.92
S73N,0.0324
S62M,0.0812
G21N,0.072
P10M,-0.554
I66R,0.341
Q50R,0.0625
A71R,1.06
I55G,0.3
R28Q,0.0264
P51T,0.268
V72R,1.61
G19M,1.22
R28M,0.0938
I85F,-0.0281

# Block 5
# Target: RNA binding protein fox-1 homolog 2, RRM domain, GST-SBP tag (RBFOX2, Homo sapiens, UniProt O43251-10, residues 100-194)
# Technique: RNA Bind-n-Seq
# Form: RNA
# Sample: in vitro
# Tested at: 365 nM
# Setting: natural RNA segment, single round, ends assumed
# Baseline: no-protein control
# Direction: higher = stronger binding
# All sequences stand within: GGGAGUUCUACAGUCCGACGAUC … UGGAAUUCUCGGGUGCCAA
# Construct (chain): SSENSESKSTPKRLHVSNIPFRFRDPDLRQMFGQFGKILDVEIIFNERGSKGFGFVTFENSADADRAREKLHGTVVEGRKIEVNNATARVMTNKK
Sequence,RBNS enrichment (R)
CAAGAUGAAAUCUCAAUAAAUUAUUUUUGAGUUUAUUAAAGAUUGACAUUUUAAGUACAACUUUUAAGGACUAAUUACUGUGAUGGACACAGAAAUGUAGCUGUGUUCUG,0.469
CAGCCAUCUGCUCCUGCAGCGUGCAGCUUUGGAUUGUUUGUGCAGAAAACAGCAAGCGAUGGCUGAUAAAUCUUAUCUUGCCAGAGGUAGUUUUUGAACAAGAAAAAGAA,0.496
CGUCUCCCUCGACAGCGCCCCUGCUGUCUUCCCCACCGCAGUCACCACCACCCGAAAUGCCACGUGGUCACUGUGCACUGCCCUGUUCAUGUGCCUCUGCGGGGCAGGGC,0.677
UACUGACAGUUCAAAUGACUCUCCUUUUUUGUUCGUUAGUAACAAUCUUCAUUUGACACCUUAAUACAUUUCUGACUGUUCUUAAAACAGUGGGGAUGCCUAUAUUUUCC,0.368
CGCCCACCACAGGCUCUUAAUGGGGCCGGGUCAGUCCUACAUGUGAGAUGGGUUAGGGCAAGUCUUUGCCAUCCCCCAGAUGGCUCUGUCUUCUUGUGUAUGGCAGGGCU,0.252
GUACAUACCAGUUUCUGAUGUUUCAGGCAGGAGUGGGGUAAAUAAGUGUGACCACUUAAAGCUGCUCGUUAGCAUGGAAGACUUCUCCAUUCUAUCUUUGUAAAACAGAC,0.623
UACGGGGCAGGGCUCAGUCCUGACGCUUGCCACCUGCUCCUACCCGGCCAGGAUGGCUGAGGGCGGAGUCUAUUUUACGCGUCGCCCAAUGACAGGACCUGGAAUGUACU,0.755
AAUCUUUACAACAUCCAUCGUCACAAAAGAGUGUUAUACAUUUAAUCCACAGGGCAUAGUUUUCUUUAUACCUUCUGUUAAUCAUCUUUCCUUAAUACUUUCUUAUCUGU,0.284
CUUAGGUUUUUAGGAGUCUGAGCAUCCAUCAAUACCUGUACUAUGAUGGGCUUCUGUUCUCUGCUGAGGGCCAAUACCCUACUGUGGGGAGAGAUGGCACACCAGAUGCU,0.251
CCCACUCUGAGAUGACAGUGGCUGACUUCCCGUGCUGGGCUUUUCCAUUGUCCCCCUGGCCUCCAGGCUCCUCCUCUGCCUCUCCAUGGAGUGGGUGGGGAGGUGGUGGG,0.34
UUUAGAUCCUUGGAGACUUUUCCUGUAUGCCUUCCAAAACUUCCUGCUCACUUAGAUGUACCUUGUGCUUUGAAGAUUUCUUUGAUGCAGUCUUUGUAACAAAUAAUUUU,0.467
UGGGAUGGGAGAGGAUGUCCCCAGGAUGGGGACAGAGGAAGCCCUGCUAGGGUCUCCUAGCCCAGUAAGCCAAAUGGGAACUAUAAGCAGAUCAAAAUUUUACACUAGCU,0.525

# Block 6
# Target: CCNB2, cyclin fold, Cln2 fusion (human)
# Technique: yeast growth competition, sequencing
# Sample: yeast
# Setting: weak parent motif
# Baseline: not given
# Direction: higher = stronger binding
# Parent: E2F1 docking peptide (human); PPVKRRLDLETDH
Variant,normalised enrichment score
PPVKRRLDLETDM [H13M],0.586
PPVKRRLDLNTDH [E10N],0.619
PPVKRRHDLETDH [L7H],0.173
PPVKRELDLETDH [R6E],0.351
PPVKRRLDLEMDH [T11M],0.4
PPVIRRLDLETDH [K4I],-0.178
PPVKRRLSLETDH [D8S],0.424
PPVKIRLDLETDH [R5I],-0.158
PPVKRFLDLETDH [R6F],0.333
PPVKRRLFLETDH [D8F],1.08
PPVKRRLDLEKDH [T11K],0.21
PPVKARADLETDH [R5A L7A],-0.176
PQVKRRLDLETDH [P2Q],0.141
PPVKRRLDLQTDH [E10Q],0.483
PRVKRRLDLETDH [P2R],0.0818
PPVKRRLDLETDK [H13K],0.851
PPVWRRLDLETDH [K4W],-0.282

# Block 7
# Target: Max dimerization protein 1, bHLH-zipper, MAX partner unstated (MXD1, Homo sapiens, UniProt Q05195, residues 56-136)
# Technique: protein-binding microarray
# Form: double-stranded DNA, one strand shown
# Sample: in vitro
# Tested at: not given
# Setting: k-mer, scored over probes, only values ≥0.25
# Direction: higher = stronger binding
# Target sequence (chain): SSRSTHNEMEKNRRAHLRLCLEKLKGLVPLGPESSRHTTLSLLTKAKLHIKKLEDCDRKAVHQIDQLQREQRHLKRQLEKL
Sequence,E-score
CGTGGTCC,0.37
CGTGGAAA,0.308
CTCCCACC,0.306
CACGCGCG,0.387
ATGCACAC,0.329
CGTGCTAC,0.299
CTGCATGC,0.305
ATCTCATG,0.324
AGGCCACG,0.268
GTGGCAGA,0.293
ACACGTGC,0.488
AGCCATGC,0.366
GTGGCACA,0.257
ACAATGTG,0.351
GGGGCGGA,0.307
CGTGTGCC,0.28
